Experimental data gathered from unrelated publications.
Numbered parts are unrelated; each lists some results of a single study.

Series 1 — technique: protein-binding microarray; form: double-stranded DNA, one strand shown; medium: in vitro; concentration: 2540 nM top; setting: 60-bp whole probe; with: salmon DNA 0.4 mg/ml; reference: random background probes; direction: higher = stronger binding; constant ends, left off below: GCCTAGCAC … GTCTTGATTCGCTTGACGCTGCTG
Target: Interferon regulatory factor 3, full length, phosphomimetic (IRF3, Homo sapiens, UniProt Q14653, residues 1-427, S386D/S396D/S398D/S402D/T404D/S405D)
Residues (chain): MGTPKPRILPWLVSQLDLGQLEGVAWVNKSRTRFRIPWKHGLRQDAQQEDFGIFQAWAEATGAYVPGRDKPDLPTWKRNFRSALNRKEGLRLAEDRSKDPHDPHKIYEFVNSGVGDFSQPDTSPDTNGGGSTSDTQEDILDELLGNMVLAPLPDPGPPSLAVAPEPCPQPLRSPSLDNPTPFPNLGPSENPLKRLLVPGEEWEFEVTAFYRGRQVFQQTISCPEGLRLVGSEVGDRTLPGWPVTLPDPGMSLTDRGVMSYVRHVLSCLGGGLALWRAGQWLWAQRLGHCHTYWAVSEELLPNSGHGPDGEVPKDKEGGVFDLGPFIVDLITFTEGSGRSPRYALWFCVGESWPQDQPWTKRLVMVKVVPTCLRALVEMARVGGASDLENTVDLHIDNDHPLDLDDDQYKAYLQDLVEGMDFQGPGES
| Strand | fitted relative affinity [z-score] |
| --- | --- |
| GACGGTATCCTCATCCTGACGTGCTAG | 1.9 |
| TTAGGTATCGGACTGGGTGAGTGCTAG | 1.17 |
| GACGGTTTCGGCTATCGGGACGTGCTA | 3.32 |
| GACGGTATCGGTATCGCGACGTGCTAG | 4.32 |
| GATGGTATCCTTCTCCTGACGTGCTAG | 7.09 |

Series 2 — technique: protein-binding microarray; form: double-stranded DNA, one strand shown; medium: in vitro; concentration: not given; direction: higher = stronger binding
Target: TATA-box-binding protein 1 (TBP1, Arabidopsis thaliana, UniProt P28147, residues 1-200, full length assumed)
Setting: k-mer, scored over probes, only values ≥0.25
Residues (chain): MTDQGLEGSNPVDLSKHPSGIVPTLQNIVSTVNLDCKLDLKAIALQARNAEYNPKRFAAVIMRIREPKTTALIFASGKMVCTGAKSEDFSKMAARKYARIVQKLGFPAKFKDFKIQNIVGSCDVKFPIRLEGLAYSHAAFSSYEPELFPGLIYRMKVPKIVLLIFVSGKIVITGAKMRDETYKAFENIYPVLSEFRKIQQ
| Strand | E-score |
| --- | --- |
| AAATATA | 0.472 |
| AAAAAAC | 0.251 |
| AATACAT | 0.269 |

Series 3 — technique: universal PBM; form: double-stranded DNA, one strand shown; medium: in vitro; concentration: not given; direction: higher = stronger binding
Target: Sal-like protein 4, full length isoform B (SALL4, Homo sapiens, UniProt Q9UJQ4-2, residues 1-616)
Setting: 8-mer, flanks averaged, mean of replicates
| Strand | E-score |
| --- | --- |
| CCGGCGGC | -0.354 |
| ATCTCTGC | -0.0155 |
| ACAAGGGA | 0.0359 |
| CTGGCCAC | -0.229 |

Other studies, line by line
| Molecule | target | assay | system | conditions | how to read | measurement | result |
| --- | --- | --- | --- | --- | --- | --- | --- |
| PhoQ, residues 284 288 289 292 302 303 ASSHFY | PhoP, residues 12 14 15 18 19 LYHSL (Escherichia coli, UniProt P23836) | Sort-seq, measured: YFP reporter | E. coli | PhoQ-PhoP variant library, with: 10 µM Mg2+ | reference: high Mg2+ state, higher = stronger signaling | fold induction | 19.6 |

For quick reference, copied from above (series 3):
| Strand | E-score |
| --- | --- |
| ATCTCTGC | -0.0155 |
| ACAAGGGA | 0.0359 |
